{"data": "Experimental data of several laboratories", "note": "Every numbered part comes from another study and shows a few of its results, in no order. Positions count from the first letter of the parent shown."}
{"data": "Block 1", "target": "Histone acetyltransferase KAT6A, winged helix 2, GST fusion (KAT6A, Homo sapiens, UniProt Q92794, residues 85-181)", "technique": "protein binding microarray", "molecule type": "double-stranded DNA, one strand shown", "medium": "in vitro", "concentration": "not given", "notes": "8-mer, flanks averaged, mean of 2 arrays, mostly near background", "baseline": "not given", "direction": "higher = stronger binding", "Residues (chain)": "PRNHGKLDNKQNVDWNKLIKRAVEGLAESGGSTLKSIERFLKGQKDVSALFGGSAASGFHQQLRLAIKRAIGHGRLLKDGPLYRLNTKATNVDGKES"}
{"Oligonucleotide": "AGTCCTCC", "E-score": -0.144}
{"Oligonucleotide": "GCGTAGGA", "E-score": -0.0659}
{"Oligonucleotide": "AAATACCG", "E-score": 0.0492}
{"Oligonucleotide": "AAGCCAGC", "E-score": 0.0812}
{"Oligonucleotide": "ACTGTGCG", "E-score": -0.0546}
{"Oligonucleotide": "GACAAGGC", "E-score": 0.0944}
{"Oligonucleotide": "AGGGCCTA", "E-score": -0.0679}
{"data": "Block 2", "target": "Phosphate system positive regulatory protein PHO4, full length, GST-tagged (PHO4, Saccharomyces cerevisiae, UniProt P07270, residues 1-312)", "technique": "competition protein-binding microarray", "molecule type": "double-stranded DNA, one strand shown", "medium": "in vitro", "concentration": "2 µM", "notes": "whole 60-bp probe, lowest competitor level", "with": "Cbf1 competitor, 0.05 µM", "direction": "higher = stronger binding", "all sequences stand within": "… GTCTTGATTCGCTTGACGCTGCTG", "Construct (chain)": "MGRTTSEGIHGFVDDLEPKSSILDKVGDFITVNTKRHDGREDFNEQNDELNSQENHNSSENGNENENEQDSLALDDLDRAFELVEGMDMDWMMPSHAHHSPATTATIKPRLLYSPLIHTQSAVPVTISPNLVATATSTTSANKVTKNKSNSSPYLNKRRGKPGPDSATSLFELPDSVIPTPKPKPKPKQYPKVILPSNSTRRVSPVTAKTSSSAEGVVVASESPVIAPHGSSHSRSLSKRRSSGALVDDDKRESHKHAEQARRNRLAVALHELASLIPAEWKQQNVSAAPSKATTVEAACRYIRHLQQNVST"}
{"Oligonucleotide": "CGTCCTAGTGATTGCGGCGTGGGTGCCATGAGGAAG", "fluorescence intensity": "8970 a.u."}
{"Oligonucleotide": "TCGCCCAATGAGACGCACAATCAAGGCTATGGCTCG", "fluorescence intensity": "3700 a.u."}
{"Oligonucleotide": "ACTACACTAACCGCCCATGTGTTGGATGGTGTAACT", "fluorescence intensity": "11300 a.u."}
{"Oligonucleotide": "CGACGCACCGAACGATACGGGGCTTGGCTGTTTTAT", "fluorescence intensity": "2840 a.u."}
{"Oligonucleotide": "CAGAAACCAACGATGCATGTGTGGGTTTGCATATGA", "fluorescence intensity": "8470 a.u."}
{"Oligonucleotide": "GCAATCGATAACAGGGACGTGCGATGCTAATGTAAT", "fluorescence intensity": "7730 a.u."}
{"Oligonucleotide": "AAATTACTAAGTTGCGTGGTGGGTGACGCCGTATGA", "fluorescence intensity": "6990 a.u."}
{"Oligonucleotide": "CTGAAACAAAACGGCCACGTGCTGTTTCAGCCTTGA", "fluorescence intensity": "15700 a.u."}
{"data": "Block 3", "target": "CCNB2, cyclin fold, Cln2 fusion (human)", "technique": "yeast growth competition, sequencing", "medium": "yeast", "notes": "weak parent motif", "baseline": "not given", "direction": "higher = stronger binding", "parent": "MASTL docking peptide (human); PMIAKNLMCELDE; partner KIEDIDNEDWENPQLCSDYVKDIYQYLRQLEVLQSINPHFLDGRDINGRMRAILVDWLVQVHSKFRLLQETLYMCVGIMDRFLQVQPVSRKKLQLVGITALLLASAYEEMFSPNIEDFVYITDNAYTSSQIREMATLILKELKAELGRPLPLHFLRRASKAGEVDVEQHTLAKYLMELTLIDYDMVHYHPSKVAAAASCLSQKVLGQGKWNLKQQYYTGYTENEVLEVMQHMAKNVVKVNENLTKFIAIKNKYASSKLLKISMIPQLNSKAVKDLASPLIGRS"}
{"Change": "PMIAPNLMCELDE [K5P]", "normalised enrichment score": 0.0087}
{"Change": "PMIAKNLMCEPDE [L11P]", "normalised enrichment score": -0.308}
{"Change": "PMIAKNLMCELHE [D12H]", "normalised enrichment score": 0.702}
{"Change": "PMIHKNLMCELDE [A4H]", "normalised enrichment score": -0.0149}
{"Change": "PMIAHNLMCELDE [K5H]", "normalised enrichment score": -0.0503}
{"Change": "PMIAKNLMCWLDE [E10W]", "normalised enrichment score": 0.216}
{"Change": "PMIAKWLMCELDE [N6W]", "normalised enrichment score": -0.149}
{"data": "Further values, each from its own experiment"}
{"Substance": "PhoQ, residues 284 288 289 292 302 303 SMMNNA", "target": "PhoP, residues 12 14 15 18 19 SQCLL (Escherichia coli, UniProt P23836)", "test": "Sort-seq, refers to: YFP reporter", "system": "E. coli", "setting": "PhoQ-PhoP variant library, with: 10 µM Mg2+", "how to read": "baseline: high Mg2+ state, higher = stronger signaling", "measurement": "fold induction", "result": 16}
